Experimental data from different studies.
Every numbered part comes from another study and shows a few of its results, in no order. Positions count from the first letter of the parent shown.

Sample 1
Target: PABPC1L2, full length, GST fusion (mouse, UniProt A0ABA7IW68)
Technique: RNAcompete
Molecule type: RNA
Matrix: in vitro
Tested at: 20 nM
Setting: 7-mer, probes averaged, single round
Relative to: mean of 7-mers
Reading: higher = stronger binding
Construct (chain): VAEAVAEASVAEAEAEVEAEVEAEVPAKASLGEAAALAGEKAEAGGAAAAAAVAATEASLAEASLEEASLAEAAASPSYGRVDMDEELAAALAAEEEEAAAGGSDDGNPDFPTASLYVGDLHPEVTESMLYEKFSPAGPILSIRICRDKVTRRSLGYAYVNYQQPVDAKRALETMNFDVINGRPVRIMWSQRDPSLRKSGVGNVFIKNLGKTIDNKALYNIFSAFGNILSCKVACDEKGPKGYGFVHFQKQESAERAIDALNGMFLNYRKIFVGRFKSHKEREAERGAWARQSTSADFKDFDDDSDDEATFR
| Strand | 7-mer Z-score |
| --- | --- |
| AAGACGA | 0.677 |
| AGUUUCU | -0.396 |
| CACGCAG | 0.0207 |
| GAAAUCU | 0.202 |
| GUCUCCU | -0.389 |
| CCCCUCA | -0.262 |
| GUUGGUA | -0.144 |
| CCCGUAC | -0.412 |

Sample 2
Target: ABI1, truncated, D143A, DHFR fusion (Arabidopsis thaliana, UniProt P49597)
Technique: DHFR PCA, dose-response
Matrix: yeast
Setting: Hill fit, mean, not affinity
With: (+)-ABA, dose series
Reading: lower = more sensitive
Starting sequence: PYL1, truncated, DHFR fusion (Arabidopsis thaliana, UniProt Q8VZS8); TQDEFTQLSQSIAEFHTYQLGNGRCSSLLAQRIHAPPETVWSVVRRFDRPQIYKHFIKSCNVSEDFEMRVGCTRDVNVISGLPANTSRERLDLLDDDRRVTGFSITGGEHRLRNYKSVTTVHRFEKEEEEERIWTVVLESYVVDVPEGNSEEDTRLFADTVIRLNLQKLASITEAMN
| Substitution | ABA EC50 [µM] |
| --- | --- |
| E139I | 3.66 |
| V78C | 9.61 |
| P36T | 2.49 |
| E174T | 8.01 |
| K168R | 2.53 |
| E174F | 38.1 |
| E151I | 3.27 |
| K116R | 2.94 |

Sample 3
Target: Histone acetyltransferase KAT6A, winged helix 2, GST fusion (KAT6A, Homo sapiens, UniProt Q92794, residues 85-181)
Technique: protein binding microarray
Molecule type: double-stranded DNA, one strand shown
Matrix: in vitro
Tested at: not given
Setting: 8-mer, flanks averaged, mean of 2 arrays, mostly near background
Relative to: not given
Reading: higher = stronger binding
Residues (chain): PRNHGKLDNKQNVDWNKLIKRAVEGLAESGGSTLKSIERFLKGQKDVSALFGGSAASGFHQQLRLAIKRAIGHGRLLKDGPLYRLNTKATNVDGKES
| Strand | E-score |
| --- | --- |
| AGGCAAAG | 0.00021 |
| AGAGTGTG | 0.0118 |
| AAGTTGGT | 0.0298 |
| CAGTACCA | 0.0372 |
| AAACTCAG | 0.00707 |
| CGCGTGAC | 0.0319 |
| CGGTCCTC | 0.0592 |
| CGTTTTTA | 0.0741 |

Further values, each from its own experiment
| SMILES | target | effect on | technique | tested at | quantity | result |
| --- | --- | --- | --- | --- | --- | --- |
| Nc1c(C(=O)NCc2ccc(C(=O)NCCCC3CCCCC3)cc2)cnn1-c1ccccc1 | Epidermal growth factor receptor (EGFR, Homo sapiens, UniProt P00533, del752-759) | cell-free assay | competition with immobilised ligand | 0.1 µM | remaining binding | 100% |

Excerpt of the above (sample 2):
| Substitution | ABA EC50 [µM] |
| --- | --- |
| K116R | 2.94 |
| E174F | 38.1 |
